Published values gathered from unrelated publications.
A part holds a random share of what one study measured.

Block 1
Target: Interferon regulatory factor 3, full length, phosphomimetic (IRF3, Homo sapiens, UniProt Q14653, residues 1-427, S386D/S396D/S398D/S402D/T404D/S405D)
UniProt Q14653, sequence (whole entry, unmodified, looked up): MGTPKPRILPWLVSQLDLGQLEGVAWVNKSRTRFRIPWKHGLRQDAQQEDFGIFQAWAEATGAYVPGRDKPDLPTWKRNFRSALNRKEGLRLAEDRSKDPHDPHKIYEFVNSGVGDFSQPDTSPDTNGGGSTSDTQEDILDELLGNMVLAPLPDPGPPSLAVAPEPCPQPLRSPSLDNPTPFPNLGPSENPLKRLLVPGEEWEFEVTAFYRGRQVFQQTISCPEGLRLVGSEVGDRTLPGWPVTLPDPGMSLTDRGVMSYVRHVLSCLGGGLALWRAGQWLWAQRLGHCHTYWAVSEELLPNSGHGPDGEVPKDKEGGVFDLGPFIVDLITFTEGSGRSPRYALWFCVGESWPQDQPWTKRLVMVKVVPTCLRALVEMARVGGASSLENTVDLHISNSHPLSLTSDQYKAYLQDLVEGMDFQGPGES
Technique: protein-binding microarray
Molecule type: double-stranded DNA, one strand shown
Matrix: in vitro
Tested at: 2540 nM top
Notes: 60-bp whole probe
Together with: salmon DNA 0.4 mg/ml
Baseline: random background probes
Reading: higher = stronger binding
Shared flanks, not repeated: GCCTAGCAC … GTCTTGATTCGCTTGACGCTGCTG
For `TACAGGATGGTTTTCAGAGAGTGCTAG`, “fitted relative affinity” read 0.0206 z-score.
`GACGGTTTCGGTTCCGCGACGTGCTAG`: “fitted relative affinity” 10 z-score.
Under “fitted relative affinity”, `TCATTTTTGTTGTTTTTACTGTGCTAG` is recorded as 1.56 z-score.
For `TCAGAGCTCTGTCTGGGACTGTGCTAG`, “fitted relative affinity” read -0.69 z-score.
For `GACGGTATCGGGTTTCGGGAGGTGCTA`, “fitted relative affinity” read 2.93 z-score.
Under “fitted relative affinity”, `GAGGATATCAGTTTCGAGACGTGCTAG` is recorded as 3.07 z-score.
Under “fitted relative affinity”, `GACTGTTTCCTTATCCTGACGTGCTAG` is recorded as 7.12 z-score.
Under “fitted relative affinity”, `GACGATGCCAGTTTCGAGACGTGCTAG` is recorded as 1.49 z-score.
Under “fitted relative affinity”, `TTAGATCTCAGTATCAATTAGTGCTAG` is recorded as 0.621 z-score.
Under “fitted relative affinity”, `TTAGGTTCCGGTTTCGATTAGTGCTAG` is recorded as 6.86 z-score.
For `TCAAATTTACTTTCTACACTGTGCTAG`, “fitted relative affinity” read 1.88 z-score.
`TCAAATCTCTCTTCACAACTGTGCTAG`: “fitted relative affinity” 0.659 z-score.
`TTAGATTTCAGGTATCGATTAGTGCTA`: “fitted relative affinity” 1.09 z-score.
`TTAGGTATCGACTACCGGTTAGTGCTA` — result for “fitted relative affinity”: 0.353 z-score.
Under “fitted relative affinity”, `CTCTACATGTGTTTAAGAATGTGCTAG` is recorded as -0.0371 z-score.
`GACGGTCTCCTTCTCCTGATGTGCTAG`: “fitted relative affinity” 3.92 z-score.
Under “fitted relative affinity”, `GACGCTCTCCTACTGCTGACGTGCTAG` is recorded as 0.401 z-score.
Under “fitted relative affinity”, `TTAGACTTCAGTTTCGATTAGTGCTAG` is recorded as 3.06 z-score.
`GACGGTCTCCTACTGCGGACGTGCTAG` — result for “fitted relative affinity”: 1.23 z-score.
`ATAGGTATCGGTTTCGGTTAGTGCTAG` — result for “fitted relative affinity”: 8.8 z-score.
For `TTAGATATCTGTCTCGATTAGTGCTAG`, “fitted relative affinity” read 0.622 z-score.

Block 2
Target: Histone acetyltransferase KAT6A, both winged helices, GST fusion (KAT6A, Homo sapiens, UniProt Q92794, residues 1-181)
Technique: protein binding microarray
Molecule type: double-stranded DNA, one strand shown
Matrix: in vitro
Tested at: not given
Notes: 8-mer, flanks averaged, mean of 2 arrays, mostly near background
Baseline: not given
Reading: higher = stronger binding
Construct (chain): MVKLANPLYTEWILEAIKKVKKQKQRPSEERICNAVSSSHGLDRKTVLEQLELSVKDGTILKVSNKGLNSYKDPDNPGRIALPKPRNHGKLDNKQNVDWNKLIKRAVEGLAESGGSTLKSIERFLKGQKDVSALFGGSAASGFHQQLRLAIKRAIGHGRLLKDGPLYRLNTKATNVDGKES
The E-score of `CGTACTGA` is reported as 0.11.
With `CCGGGCGC` the E-score was 0.296.
The E-score of `ACTACGAG` is reported as -0.111.
`ATAGTTGA` gave an E-score of -0.023.
For `AAACGGCA`, the E-score was 0.242.
With `GAATGGTC` the E-score was 0.0576.
`ACAAAGAA` gave an E-score of -0.112.
`CCATGCGC` gave an E-score of 0.152.
`CATACAGA` gave an E-score of -0.0515.
For `AACGGACG`, the E-score was 0.173.
`AGACGAAA` gave an E-score of 0.076.
The E-score of `TCCTACGA` is reported as -0.153.
For `GCCCATAC`, the E-score was -0.102.
For `ACCAAGCA`, the E-score was -0.142.
With `AAGCAACC` the E-score was 0.11.
With `ACACTGCA` the E-score was -0.152.
`AGTAATTA` has an E-score of -0.114.
`CCTCGAGC` gave an E-score of -0.0362.
With `CACTACCG` the E-score was 0.0697.
For `CAAGCTAA`, the E-score was -0.243.
The E-score of `AAACGGGG` is reported as 0.148.
For `ACATCTTA`, the E-score was -0.216.
`CCACCCGG` gave an E-score of 0.139.
`TATCTGAA` gave an E-score of -0.0866.
`CTAACCAC` has an E-score of -0.0847.

Block 3
Target: Sal-like protein 4, full length isoform B (SALL4, Homo sapiens, UniProt Q9UJQ4-2, residues 1-616)
Technique: universal PBM
Molecule type: double-stranded DNA, one strand shown
Matrix: in vitro
Tested at: not given
Notes: 8-mer, flanks averaged, mean of replicates
Reading: higher = stronger binding
Target sequence (chain): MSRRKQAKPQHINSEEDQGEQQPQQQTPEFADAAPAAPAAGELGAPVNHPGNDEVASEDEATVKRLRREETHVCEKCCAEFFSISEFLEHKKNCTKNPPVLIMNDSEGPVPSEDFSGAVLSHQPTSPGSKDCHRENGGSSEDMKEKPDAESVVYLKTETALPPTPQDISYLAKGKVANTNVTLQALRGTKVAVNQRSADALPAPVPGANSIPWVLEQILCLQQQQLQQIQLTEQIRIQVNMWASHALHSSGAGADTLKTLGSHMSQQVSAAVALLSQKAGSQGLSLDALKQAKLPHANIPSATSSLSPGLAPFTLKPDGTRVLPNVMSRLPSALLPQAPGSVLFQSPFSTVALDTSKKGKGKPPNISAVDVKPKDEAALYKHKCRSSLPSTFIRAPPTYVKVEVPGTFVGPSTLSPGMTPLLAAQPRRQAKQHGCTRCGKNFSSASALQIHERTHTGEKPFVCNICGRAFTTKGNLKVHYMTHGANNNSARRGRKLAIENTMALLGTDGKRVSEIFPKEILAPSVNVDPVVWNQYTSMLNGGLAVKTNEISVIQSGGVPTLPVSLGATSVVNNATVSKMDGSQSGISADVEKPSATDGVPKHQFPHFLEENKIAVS
For `AAGATCAA`, the E-score was 0.102.
`CAATTGAC` has an E-score of 0.0614.
For `CAGACAGG`, the E-score was -0.189.
The E-score of `AATCAGGA` is reported as 0.00873.
`AGACGGCA` gave an E-score of -0.157.
For `ACTCTTTA`, the E-score was 0.16.
With `TACACCGA` the E-score was -0.159.
`GTCTCACA` gave an E-score of 0.0351.
`TCTCCTCA` has an E-score of 0.0623.
For `ATACTGCG`, the E-score was 0.0236.
`GTACTGAA` has an E-score of 0.114.
For `ATTCAGCG`, the E-score was -0.0941.
`CATGGGGA` has an E-score of -0.205.
With `ATAACTAG` the E-score was 0.31.
`ATGAACGC` has an E-score of 0.0882.
For `GCGCAATA`, the E-score was 0.139.

Block 4
Target: RNA binding protein fox-1 homolog 2, RRM domain, GST-SBP tag (RBFOX2, Homo sapiens, UniProt O43251-10, residues 100-194)
Technique: RNA Bind-n-Seq
Molecule type: RNA
Matrix: in vitro
Tested at: 365 nM
Notes: natural RNA segment, single round, ends assumed
Baseline: no-protein control
Reading: higher = stronger binding
Target sequence (chain): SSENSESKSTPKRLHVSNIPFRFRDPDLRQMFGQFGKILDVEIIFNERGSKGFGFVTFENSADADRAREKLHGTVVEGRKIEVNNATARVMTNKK
Under “RBNS enrichment (R)”, `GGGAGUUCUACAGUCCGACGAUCAGGGUUGGGCCUGUUGGGGCCAGGUUUGUAAUGUCUCCAAGGGCAUCUGCAGAGAGCUUGGCAGCUCCAGCUCUCCUCAGCAGGCCUCUCCACCCUGAUCUGGCCCCUGUUGGAAUUCUCGGGUGCCAA` is recorded as 0.273.
`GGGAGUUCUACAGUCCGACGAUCUCCUCUUCAUAGGCAGAAUCCUGGACCCCAGUAGUACUUAAUGUCUCAGUGCUCUACAGAACCCCCAGAGGGAAGCUGAUUAUACAUUCCAGGAAGGCGGCCGGUAGCUUUGGAAUUCUCGGGUGCCAA`: “RBNS enrichment (R)” 0.47.
`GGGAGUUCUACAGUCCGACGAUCCUGUGGUGGAAGAGGGCACGACAGUGCCAGCGCAGCGUUCUGGGCUCCUCAGUCGCAGGGGUGGGAUGUGAGUCAUGCGGAUUAUCCACUCGCCACAGUUAUCAGCUGCCUGGAAUUCUCGGGUGCCAA` — result for “RBNS enrichment (R)”: 0.508.
`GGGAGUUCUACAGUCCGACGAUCACAUUCCAAUGGGGCGGAGCCUGAGCUAGGGGGUGUGGCCUGGCUGCUAGAGUUGUGGUGGCAGGGGCCCUGGCCCCGUCUCAGGAUUGCGCUCGCUUUCAUGGGACCAGUGGAAUUCUCGGGUGCCAA`: “RBNS enrichment (R)” 0.561.
Under “RBNS enrichment (R)”, `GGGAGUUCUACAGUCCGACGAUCGAGUUGCCUGGGAUUGGGAGCUGUGGGUGGUGCAAGUCAGGGAGUGGGCCAGGAGAGGCCCGGGUUUUCUGUUUGAGCUAUACUCUGACCCAGGAUGUUAGAGCACACUGUGGAAUUCUCGGGUGCCAA` is recorded as 1.59.
`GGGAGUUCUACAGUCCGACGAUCGGAGGGAGCUCUCAGGCUGCAGAGACAGUCAAGUAGAAGAGGAAGAGCUAAGGGGUGUGGAGUCCUGCUCCUCCAUUUGUCCUGAUCAUUUCAACACCUGGCCCUUGCUCUGGAAUUCUCGGGUGCCAA`: “RBNS enrichment (R)” 0.683.
For `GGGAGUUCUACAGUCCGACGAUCUCUGGGGACACUGACUCAGCGAGUGUGUUCCAGACUGACUUCCAGGACACUGUGUGACGUCAGCAUCUCAGACAGGCAGGAGAAAAGCACCAGAUACCUGGCUUUCCAUGUGGAAUUCUCGGGUGCCAA`, “RBNS enrichment (R)” read 0.677.
`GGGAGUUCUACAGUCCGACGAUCUUUUAACAAAGACAAUACACACAUAAGCACAUUAAAACAGGAAUGCUAUGAUACUGUUUAGCAUUUGCUCUGCUGCCUAUCUUUCUCUGUUUUUAAUUAACAAUUGGAUUUGGAAUUCUCGGGUGCCAA` — result for “RBNS enrichment (R)”: 1.02.
For `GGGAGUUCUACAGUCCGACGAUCUAAUCACUUCGUCAUAAUGUUAAGGGAGAUGCUAGUGUGUGGCAGCCAUGAAAAGUUACACAUACACACCCACAUACAGACAGACCUACCUAUACAUACGUGCACACACAUGGAAUUCUCGGGUGCCAA`, “RBNS enrichment (R)” read 0.508.
Under “RBNS enrichment (R)”, `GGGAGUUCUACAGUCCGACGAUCGCUGUAAACCUGUUUUUUAAAACUAUUUUAGAAACCUGAGACUUGCCGUCUGGCAUUUUAGUUUAAUACAAACUAAUGAUUGCAUUUGAAAGAGAUUCUUGACCUUAUUUUGGAAUUCUCGGGUGCCAA` is recorded as 1.01.
`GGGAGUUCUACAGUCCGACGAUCGUCCACUUUGGUUUUUCUUAUCUCUGUAUGUAAGAAAUUCUGUUUGUUGUUUACUAUGGAAUUAGUAUUACAUUUUGAGGUAAACAAAGAAUUUGUAUUGCUUGAUAAACUGGAAUUCUCGGGUGCCAA` — result for “RBNS enrichment (R)”: 0.709.
For `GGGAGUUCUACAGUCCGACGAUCGGCCGAGUUUGGGCCCAUGGAGCACACCCAGGCUGUGGACUAUGUUAAGAAGCUCAUGACCAAGGGCCGCUACUCGCUGGAUGUAUGGAGCUAGGAGCUGCCGCCCCCCAUGGAAUUCUCGGGUGCCAA`, “RBNS enrichment (R)” read 0.922.

A few entries again (block 3):
`AGACGGCA` gave an E-score of -0.157.
For `ACTCTTTA`, the E-score was 0.16.
With `TACACCGA` the E-score was -0.159.
`GTCTCACA` gave an E-score of 0.0351.
`TCTCCTCA` has an E-score of 0.0623.
For `ATACTGCG`, the E-score was 0.0236.
`GTACTGAA` has an E-score of 0.114.
For `ATTCAGCG`, the E-score was -0.0941.
`CATGGGGA` has an E-score of -0.205.
With `ATAACTAG` the E-score was 0.31.
`ATGAACGC` has an E-score of 0.0882.
For `GCGCAATA`, the E-score was 0.139.
